Measurements collected from several papers.
Each line is one published result; not all experiments were run side by side. ± marks the error that the study gave.

The half-life of `COc1ccc2nc(NC(=O)c3ccc(C(N)c4ccccc4)cc3)sc2c1` (centres unmarked) is reported as 3.03 h (CD-1 mouse, mouse liver S9 fraction; 2 µM).
`Cc1ccc(=O)n(-c2ccc(O)cc2)c1` has a half-life of 1.96 ± 0.38 h (BALB/c mouse, plasma; oral, 1.0 mmol/kg).
`CCCCCCCCCCCCCCCC(=O)N[C@@H](CCC(=O)NCCCC[C@H](NC(=O)[C@H](CCC(N)=O)NC(=O)[C@H](Cc1c[nH]cn1)NC(=O)[C@@H](NC(=O)[C@H](CCCCN)NC(=O)[C@H](CC(=O)O)NC(=O)[C@H](CCSC)NC(=O)[C@H](C)NC(=O)[C@@H](NC(=O)[C@H](CO)NC(=O)[C@H](Cc1ccc(O)cc1)NC(=O)[C@H](CC(=O)O)NC(=O)[C@H](CO)NC(=O)[C@@H](NC(=O)[C@H](Cc1ccccc1)NC(=O)[C@@H](NC(=O)CNC(=O)[C@H](CCC(=O)O)NC(=O)[C@H](C)NC(=O)[C@H](Cc1ccc(O)cc1)NCC(F)(F)F)[C@@H](C)O)[C@@H](C)CC)[C@@H](C)CC)[C@@H](C)CC)C(=O)N[C@@H](CC(=O)O)C(=O)N[C@@H](Cc1ccccc1)C(=O)N[C@H](C(=O)N[C@@H](CC(N)=O)C(=O)N[C@@H](Cc1c[nH]c2ccccc12)C(=O)N[C@@H](CC(C)C)C(=O)N[C@@H](CC(C)C)C(=O)N[C@@H](C)C(=O)N[C@@H](CCC(N)=O)C(=O)N[C@@H](CCCCN)C(=O)NCC(=O)N[C@@H](CCCCN)C(=O)N[C@@H](CCCCN)C(=O)N[C@@H](CC(N)=O)C(=O)N[C@@H](CC(=O)O)C(=O)N[C@@H](Cc1c[nH]c2ccccc12)C(=O)N[C@@H](CCCCN)C(=O)N[C@@H](Cc1c[nH]cn1)C(=O)N[C@@H](CC(N)=O)C(=O)N[C@H](C(=O)N[C@H](C(=O)N[C@@H](CCC(N)=O)C(=O)O)[C@@H](C)O)[C@@H](C)CC)C(C)C)C(=O)O` has a half-life of 9.7 h (GIPR luciferase bioassay; C57BL/6 mouse, male, serum; subcutaneous, 1.25 µg).
The half-life of `O=C(c1ccccc1)N1C(c2ccc(OCC3CCN(CCCF)C3)cc2)c2ccc(O)cc2CC12CC2` (centres unmarked) is reported as 4.02 h (C57BL/6J mouse, plasma; oral, 25 mg/kg, group mean).
For `O=C(NS(=O)(=O)c1cccs1)c1cc2ccccc2n1Cc1ccc(Br)c2ccccc12`, the half-life was 0.84 h (mouse, plasma; oral, 2 mg/kg).
With `CN(Cc1cc(C2CC2)on1)C(=O)c1cccc(-c2ccc(F)cc2)c1` the half-life was > 2 h (ICR/CD-1 mouse, male, liver microsomes; 2 µM, pH 7.5, added: 1-aminobenzotriazole 500 µM, preincubated 30 min).
With `Cc1ccc(OCC(=O)N(Cc2cccs2)c2ccn[nH]2)cc1` the half-life was 0.46 h (male CD-1 mouse, plasma; oral, 30 mg/kg).
For `O=c1c(-c2cnn(-c3ccccc3)c2)c(C(F)(F)F)oc2c(O)c(O)ccc12`, the half-life was 7.2 h (mouse; intraperitoneal, 100 mg/kg, DMSO vehicle).
For `C=CC(=O)Nc1ccc(-n2nc3c(=O)[nH]nc(N)c3c2-c2oc3cc(F)ccc3c2C)cc1`, the half-life was 2.21 h (BALB/c nude mouse, whole blood; 1 µM, 37 °C).
`O=S(=O)(N[C@H]1CCC[C@@H](N2c3ccccc3CCc3ccccc32)[C@@H]1O)c1ccc(OC(F)(F)F)cc1` has a half-life of 5.1 h (mouse, plasma; oral, 100 mg/kg, solution).
`C=CC(=O)Nc1ccc(-n2nc3c(=O)[nH]nc(N)c3c2-c2oc3ccc(Br)cc3c2C)cc1` gave a half-life of 2.71 h (BALB/c nude mouse, whole blood; 1 µM, 37 °C).
The half-life of `C/C(=N\Nc1ncnc2sc3c(c12)CCCC3)c1cc(O)ccc1O` is reported as 3.29 h (ICR mouse, plasma; oral, 30 mg/kg).
The half-life of `O=C1CCC(N2Cc3cc(C(=O)O)c(F)cc3C2=O)C(=O)N1` (centres unmarked) is reported as 1.8 ± 0.9 h (male CD-1 mouse, plasma; oral, 10 mg/kg of parent drug).
The half-life of `CCC1(CC)CC(=O)N(C2c3cc(C(=O)NC4c5ccccc5CC4O)ccc3OC2(C)COC)C(=N)N1` (centres unmarked) is reported as 4.2 ± 0.6 h (C57BL/6 mouse male, plasma).
The half-life of `O=S(=O)(NCc1ccncc1)c1ccc(C2CCCCC2)cc1` is reported as 1.1 h (C57BL/6J mouse, male, peripheral fat; intraperitoneal, 0.3 mg/kg).
For `C=CC(=O)Nc1ccc(-n2nc3c(=O)[nH]nc(N)c3c2-c2oc3ccc(C)cc3c2C)cc1`, the half-life was 1.93 h (BALB/c nude mouse, whole blood; 1 µM, 37 °C).
For `Nc1nc2cnc(C(=O)N3CCOC[C@@H]3c3ccc(C(F)(F)F)cc3)cc2c2c1COC2`, the half-life was 1.6 h (mouse; 5 mg/kg).

Excerpt of the above:
For `C=CC(=O)Nc1ccc(-n2nc3c(=O)[nH]nc(N)c3c2-c2oc3ccc(C)cc3c2C)cc1`, the half-life was 1.93 h (BALB/c nude mouse, whole blood; 1 µM, 37 °C).
`Cc1ccc(=O)n(-c2ccc(O)cc2)c1` has a half-life of 1.96 ± 0.38 h (BALB/c mouse, plasma; oral, 1.0 mmol/kg).
